Literature values, collected from citations in different studies.
Protocols differ between the studies behind these lines. Numbers after ± are the reported error.

| Compound | target or system | assay | test system | setting | scale | quantity | value |
| --- | --- | --- | --- | --- | --- | --- | --- |
| O=C(O)COc1ccc(Br)cc1/C=N/NC(=O)CNc1ccc(Cl)cc1 | COX-2 | – | – | – | – | IC50 | 0.09 ± 0.01 µM |
| Cc1n[nH]c(S/C(=C/c2ccc(-c3cccc(C(=O)O)c3)o2)C(=O)O)n1 | MurA (Escherichia coli) | enzyme activity, inhibitor | – | – | – | IC50 | 1 µM |
| Cc1ccc(C(=O)N/N=C/c2cc(Br)ccc2OCC(=O)O)cc1 | COX-2 | – | – | – | – | IC50 | 0.07 ± 0.01 µM |
| C[C@@H](Nc1c(-c2c(F)cc(C#CCCO)cc2F)c(Cl)nc2ncnn12)C(C)(C)C | HEK293 | – | – | 1 µM, 4 h, unit not given | relative to: vehicle (DMSO) | acetylated α-tubulin level | 3.67 ± 0.34 |
| CC(C)(C)OC(=O)NC(C(=O)NO)c1ccc(Br)cc1 (stereo not shown) | Plasmodium falciparum aminopeptidase M1 | inhibitor | – | – | – | Ki | 0.027 µM |
| CN(C)CCCOc1cc(F)c(-c2c(Cl)nc3ncnn3c2NCC2(C)N=N2)c(F)c1 | HEK293 | – | – | 1 µM, 4 h, unit not given | relative to: vehicle (DMSO) | acetylated α-tubulin level | 10.5 ± 0.4 |
| Cc1ccc(NCC(=O)N/N=C/c2cc(Br)ccc2OCC(=O)O)cc1 | COX-2 | – | – | – | – | IC50 | 0.06 ± 0.01 µM |
| O=c1[nH]c(-c2cccc(OCc3ccc(Cl)cc3)c2)nc2ccccc12 | MurA | enzyme activity, inhibitor | – | – | – | IC50 | 8 µM |
| O=C(O)COc1ccc(Br)cc1C=NNC(=O)Cc1ccccc1 (mixture of isomers) | – | – | rat carrageenan paw edema | dose not given | – | paw weight increase | 33.1 ± 1.88% |
| CC(C)(C)C(=O)NC(C(=O)NO)c1ccc(-c2cc(F)c(F)c(F)c2)cc1 (stereo not shown) | Plasmodium falciparum aminopeptidase M1 | inhibitor | – | – | – | Ki | 0.078 µM |

Some of these lines once more:
| Compound | target or system | assay | test system | setting | scale | quantity | value |
| --- | --- | --- | --- | --- | --- | --- | --- |
| Cc1ccc(C(=O)N/N=C/c2cc(Br)ccc2OCC(=O)O)cc1 | COX-2 | – | – | – | – | IC50 | 0.07 ± 0.01 µM |
